{"data": "Measured values gathered from unrelated publications", "note": "Protocols differ between the studies behind these lines. ± marks the error that the study gave."}
{"Compound": "CC(C)C[C@@H]1NC(=O)[C@H](CCCCN)NC(=O)[C@H](C(C)C)NC(=O)[C@@H]2CCCN2C(=O)[C@@H](Cc2ccc(O)cc2)NC(=O)[C@H](CC(C)C)NC(=O)[C@H](CCCCN)NC(=O)[C@H](C(C)C)NC(=O)[C@H](CCCCN)NC(=O)[C@H](CC(C)C)NC(=O)[C@@H]2CCCN2C(=O)[C@@H](Cc2ccc(O)cc2)NC(=O)[C@H](CCCCN)NC1=O", "organism": "Gram-negative bacteria", "setting": "24 h, 7 strains", "quantity": "MIC geometric mean", "result": "26.3 µg/mL"}
{"Compound": "C=CCc1ccc(OCC(=C)C)c(OC)c1", "organism": "Spodoptera frugiperda", "test system": "larvae", "setting": "250 µg/mL", "how to read": "baseline: untreated control", "quantity": "antifeedant index", "result": "56.7%"}
{"Compound": "CC(C)C[C@H](NC(=O)[C@H](C)NC(=O)[C@H](CCCNC(=N)N)NC(=O)[C@H](CO)NC(=O)[C@H](Cc1ccc(O)cc1)NC(=O)[C@H](C)NC(=O)[C@H](CCCNC(=N)N)NC(=O)[C@H](CCCNC(=N)N)NC(=O)[C@H](CCCNC(=N)N)NC(=O)[C@H](CCC(N)=O)NC(=O)[C@H](CCCNC(=N)N)NC(=O)[C@H](CCCNC(=N)N)NC(=O)[C@H](CCCCN)NC(=O)[C@H](CCCCN)NC(=O)[C@@H](N)CCCNC(=N)N)C(=O)N[C@@H](CO)C(=O)N[C@@H](CCCNC(=N)N)C(=O)N[C@@H](CCC(N)=O)C(=O)N[C@@H](CC(C)C)C(=O)N[C@@H](C)C(=O)N[C@@H](CO)C(=O)O", "organism": "enterovirus A71", "test": "western blot", "test system": "RD", "setting": "50 µM, 2 h pretreatment then 9 h", "quantity": "VP1 protein level reduction", "result": "> 90%"}
{"Compound": "Nc1nc(-c2ccccc2)nc2[nH]nc(Nc3ccc(F)cc3)c12", "organism": "coxsackievirus B3", "test": "plaque formation, plaque reduction", "test system": "HeLa, Nancy, resistant mutant I1207M", "quantity": "IC50", "result": "31.5 ± 7.89 µM"}
{"Compound": "C=C(C)[C@@H]1CC[C@]2(C(=O)N3CCN(C)CC3)CC[C@]3(C)[C@H](CC[C@@H]4[C@@]5(C)CCCNC(C)(C)[C@@H]5CC[C@]43C)[C@@H]12", "organism": "Human cytomegalovirus", "test system": "HFF, AD169", "how to read": "baseline: CC50 over EC50", "quantity": "selectivity index", "result": "< 3"}
{"Compound": "CC[C@@H](C)[C@@H](NC(=O)[C@@H](C)NC(=O)[C@@H](CCCCN)NC(=O)[C@@H](CC(C)C)NC(=O)[C@@H](C)NC(=O)[C@H](NC(=O)[C@@H](Cc1c[nH]cn1)NC(=O)[C@@H](CC(C)C)NC(=O)[C@H](NC(=O)[C@H](NC(=O)[C@@H](CCCCN)NC(=O)[C@@H](CCCCN)NC(=O)[C@@H](C)NC(=O)[C@@H](CO)NC(=O)[C@@H](CCCCN)NC(=O)[C@@H](Cc1ccccc1)NC(=O)[C@H](NC(=O)[C@@H](CCCCN)NC(=O)[C@@H](CC(C)C)NC(=O)[C@@H](Cc1ccccc1)NC(=O)[C@@H](CO)NC(=O)[C@@H](CCCCN)NC(=O)[C@@H](Cc1c[nH]c2ccccc12)NC(=O)[C@@H](CCCCN)NC(C)=O)[C@H](C)O)[C@H](C)O)C(C)C)[C@H](C)O)C(=O)N[C@H](CO)C(=O)N[C@H](CO)C(N)=O", "organism": "Absidia corymbifera", "test system": "clinical isolate", "setting": "48 h, 30 °C", "quantity": "MIC50", "result": "12.5 µg/mL"}
{"Compound": "COC(=O)C1=CO[C@@H](C)[C@@H]2Cn3ccc4c5ccccc5nc-4c3C[C@H]12", "organism": "Plasmodium falciparum", "test": "parasite growth, [3H]-hypoxanthine incorporation", "test system": "FCR3 drug-resistant", "setting": "48 h", "how to read": "baseline: 3D7 over FCR3", "quantity": "IC50 fold decrease", "result": "2 to 6 fold"}
{"Compound": "CC1(C)NCCC[C@]2(C)[C@H]3CC=C4[C@@H]5C[C@@](C)(CO)CC[C@]5(C)CC[C@@]4(C)[C@]3(C)CC[C@@H]12", "organism": "Human cytomegalovirus", "test system": "HFF, AD169", "how to read": "baseline: CC50 over EC50", "quantity": "selectivity index", "result": 172}
{"Compound": "CC(=O)c1c(O)c(C)c(O)c2c1OC1=CC(=O)/C3=C(/C)N[C@H](C(=O)O)CC1=CC=CC=C[C@@]2(C)C3=O", "organism": "Candida tropicalis", "quantity": "MFC/MIC ratio", "result": 63.5}
{"Compound": "CCCCCCCCCCCCCC(=O)N[C@@H]1CCNC(=O)[C@H](CC(=O)O)NC(=O)[C@H](C(C)C)NC(=O)[C@@H](Cc2ccc(O)cc2)NC(=O)[C@H](CCN)NC(=O)[C@H](CC(C)C)NC(=O)[C@@H](Cc2ccccc2)NC(=O)[C@H](CCN)NC(=O)[C@H](CC(C)C)NC(=O)[C@H](CCN)NC(=O)[C@H]([C@@H](C)O)NC1=O", "organism": "ESKAPE pathogens", "setting": "concentration not given", "how to read": "baseline: MIC with serum over without", "quantity": "MIC fold change with serum", "result": "2 fold"}
{"Compound": "CCC1c2cc(OC)c(O)cc2C(c2ccc(O)c(OC)c2)C1C (stereo not drawn)", "organism": "Spodoptera frugiperda", "test system": "larvae", "setting": "250 µg/mL", "how to read": "baseline: untreated control", "quantity": "antifeedant index", "result": "23.5%"}
{"Compound": "COc1ccc(-n2c(SCCCN3CCOCC3)nnc2[C@H](Cc2ccccc2)NC(=O)Cc2c(C)[nH]c3ccccc23)cc1", "organism": "HIV-1 NL4-3", "test": "single-round infection", "setting": "5 µM, late stage", "how to read": "baseline: untreated", "quantity": "infection", "result": "11.2 ± 8.19%"}
{"Compound": "CCCCCCCCCC(=O)OCC1OC(n2cc(C)c(=O)[nH]c2=O)CC1N(C)C (stereo not drawn)", "organism": "respiratory syncytial virus", "test": "viral replication", "test system": "HeLa", "quantity": "EC50", "result": "> 0.23 µM"}
{"Compound": "C=CCc1ccc(OCc2ccccc2)c(OC)c1", "organism": "Spodoptera frugiperda", "test": "insecticidal activity", "test system": "larvae", "setting": "topical", "quantity": "LD50", "result": "900 mg/kg"}
{"Compound": "CC(=O)O[C@@H]1C[C@@H](C)O[C@H]2O[C@@H]3C[C@@H]4CC[C@@H]5[C@H](CC[C@]6(C)[C@@H](C7=CC(=O)OC7)CC[C@]56O)[C@@]4(C)C[C@H]3O[C@]21O", "organism": "Schistosoma mansoni", "test system": "mouse, chronic infection", "setting": "oral, 10 mg/kg single dose, females", "quantity": "worm number", "result": "7 ± 1.4"}
{"Compound": "CCn1c2ccccc2c2cc(/C=N/NC(=O)Cn3ccc(=O)c4ccccc43)ccc21", "organism": "Rhizoctonia solani", "test": "microbial growth", "setting": "50 µg/mL", "quantity": "inhibition", "result": "21.4%"}
{"Compound": "CC[C@H](C)[C@H](NC(=O)[C@H](CCCCN)NC(=O)[C@H](CCCCN)NC(=O)[C@H](CC(C)C)NC(=O)[C@H](CCCCN)NC(=O)[C@H](CCC(=O)O)NC(=O)[C@H](CCCCN)NC(=O)[C@@H](NC(=O)[C@H](CCCCN)NC(=O)[C@H](CC(N)=O)NC(=O)[C@H](CCCNC(=N)N)NC(=O)[C@H](Cc1ccccc1)NC(=O)[C@H](CCCCN)NC(=O)[C@H](CCCNC(=N)N)NC(=O)[C@H](CC(C)C)NC(=O)[C@H](CCCNC(=N)N)NC(=O)[C@H](CCCCN)NC(=O)[C@H](CCCNC(=N)N)NC(=O)[C@H](CC(C)C)NC(=O)CN)[C@@H](C)CC)C(=O)NCC(=O)N[C@@H](CCC(N)=O)C(=O)N[C@@H](CCCCN)C(=O)N[C@H](C(=O)N[C@@H](CCC(N)=O)C(=O)NCC(=O)N[C@@H](Cc1ccccc1)C(=O)N[C@H](C(=O)N1CCC[C@H]1C(=O)N[C@@H](CCCCN)C(=O)N[C@@H](CC(C)C)C(=O)N[C@@H](C)C(=O)N1CCC[C@H]1C(=O)N[C@@H](CCCNC(=N)N)C(=O)N[C@H](C(=O)N[C@@H](CC(=O)O)C(=O)N[C@@H](Cc1ccc(O)cc1)C(=O)O)[C@@H](C)O)C(C)C)[C@@H](C)CC", "organism": "Alcaligenes faecalis", "test": "inhibition zone", "test system": "CGMCC 1.184", "quantity": "lethal concentration", "result": "1.8 µM"}
{"Compound": "CC[C@H](C)[C@H](NC(=O)[C@H](CCCNC(=N)N)NC(=O)CNC(=O)[C@H](CCCCN)NC(=O)[C@@H](NC(=O)CNC(=O)[C@H](Cc1c[nH]cn1)NC(=O)[C@@H](NC(=O)[C@H](CC(C)C)NC(=O)[C@H](CO)NC(=O)CNC(=O)[C@H](CC(C)C)NC(=O)CN)C(C)C)C(C)C)C(=O)N[C@@H](Cc1ccccc1)C(=O)N[C@@H](CC(N)=O)C(=O)N[C@@H](Cc1c[nH]cn1)C(=O)N[C@@H](CCCCN)C(=O)N[C@@H](CC(C)C)C(=O)NCC(=O)N[C@@H](CCSC)C(=O)N[C@@H](C)C(=O)N[C@@H](CO)C(=O)N[C@H](C(=O)N[C@H](C(=O)N[C@@H](CCCCN)C(=O)NCC(=O)N[C@H](C(=O)N[C@@H](CC(C)C)C(=O)N[C@@H](CCC(N)=O)C(=O)N[C@@H](CCCCN)C(=O)N[C@@H](CC(C)C)C(=O)N[C@@H](Cc1c[nH]c2ccccc12)C(=O)N[C@@H](CCC(=O)O)C(=O)O)C(C)C)[C@@H](C)CC)C(C)C", "organism": "Gram-negative bacteria", "test": "MIC", "setting": "concentration not given", "quantity": "antibacterial activity", "result": "active"}
{"note": "Excerpt of the above:"}
{"Compound": "CC1(C)NCCC[C@]2(C)[C@H]3CC=C4[C@@H]5C[C@@](C)(CO)CC[C@]5(C)CC[C@@]4(C)[C@]3(C)CC[C@@H]12", "organism": "Human cytomegalovirus", "test system": "HFF, AD169", "how to read": "baseline: CC50 over EC50", "quantity": "selectivity index", "result": 172}
{"Compound": "CC(C)C[C@@H]1NC(=O)[C@H](CCCCN)NC(=O)[C@H](C(C)C)NC(=O)[C@@H]2CCCN2C(=O)[C@@H](Cc2ccc(O)cc2)NC(=O)[C@H](CC(C)C)NC(=O)[C@H](CCCCN)NC(=O)[C@H](C(C)C)NC(=O)[C@H](CCCCN)NC(=O)[C@H](CC(C)C)NC(=O)[C@@H]2CCCN2C(=O)[C@@H](Cc2ccc(O)cc2)NC(=O)[C@H](CCCCN)NC1=O", "organism": "Gram-negative bacteria", "setting": "24 h, 7 strains", "quantity": "MIC geometric mean", "result": "26.3 µg/mL"}
{"Compound": "C=CCc1ccc(OCc2ccccc2)c(OC)c1", "organism": "Spodoptera frugiperda", "test": "insecticidal activity", "test system": "larvae", "setting": "topical", "quantity": "LD50", "result": "900 mg/kg"}
